Experimental data collected from several papers.
Every numbered part comes from another study and shows a few of its results, in no order.
Sequence of UniProt Q9UHD2 (whole entry, looked up): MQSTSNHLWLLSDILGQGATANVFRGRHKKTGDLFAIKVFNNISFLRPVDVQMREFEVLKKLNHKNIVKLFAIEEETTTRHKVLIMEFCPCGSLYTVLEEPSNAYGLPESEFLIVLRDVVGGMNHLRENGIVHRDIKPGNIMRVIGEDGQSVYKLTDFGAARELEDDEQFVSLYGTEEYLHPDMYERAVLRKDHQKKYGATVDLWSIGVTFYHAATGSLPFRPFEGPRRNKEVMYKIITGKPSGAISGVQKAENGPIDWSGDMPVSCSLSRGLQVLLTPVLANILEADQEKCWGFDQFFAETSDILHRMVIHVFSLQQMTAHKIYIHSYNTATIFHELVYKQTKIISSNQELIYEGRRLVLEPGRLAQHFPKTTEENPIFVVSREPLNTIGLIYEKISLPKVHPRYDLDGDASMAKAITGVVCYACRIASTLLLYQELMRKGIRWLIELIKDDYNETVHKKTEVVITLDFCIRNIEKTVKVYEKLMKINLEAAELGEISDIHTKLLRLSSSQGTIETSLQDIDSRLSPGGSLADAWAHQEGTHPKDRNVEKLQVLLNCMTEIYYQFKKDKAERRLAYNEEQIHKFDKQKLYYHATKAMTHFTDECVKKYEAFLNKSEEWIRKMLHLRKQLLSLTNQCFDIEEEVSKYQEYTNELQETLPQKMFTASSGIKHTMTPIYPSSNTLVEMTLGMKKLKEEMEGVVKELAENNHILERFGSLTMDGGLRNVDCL
Sequence of UniProt P36507 (whole entry, looked up): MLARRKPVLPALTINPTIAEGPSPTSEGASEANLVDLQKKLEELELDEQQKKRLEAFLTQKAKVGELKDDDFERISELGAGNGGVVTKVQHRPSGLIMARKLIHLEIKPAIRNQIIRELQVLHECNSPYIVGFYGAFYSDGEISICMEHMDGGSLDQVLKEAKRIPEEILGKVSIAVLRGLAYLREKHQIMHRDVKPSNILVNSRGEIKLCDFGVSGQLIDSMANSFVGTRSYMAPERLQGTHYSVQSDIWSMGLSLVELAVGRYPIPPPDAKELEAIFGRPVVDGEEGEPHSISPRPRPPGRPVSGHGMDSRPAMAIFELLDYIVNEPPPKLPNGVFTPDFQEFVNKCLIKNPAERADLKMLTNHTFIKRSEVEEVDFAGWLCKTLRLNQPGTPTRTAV
Sequence of UniProt Q8IYT8 (whole entry, looked up): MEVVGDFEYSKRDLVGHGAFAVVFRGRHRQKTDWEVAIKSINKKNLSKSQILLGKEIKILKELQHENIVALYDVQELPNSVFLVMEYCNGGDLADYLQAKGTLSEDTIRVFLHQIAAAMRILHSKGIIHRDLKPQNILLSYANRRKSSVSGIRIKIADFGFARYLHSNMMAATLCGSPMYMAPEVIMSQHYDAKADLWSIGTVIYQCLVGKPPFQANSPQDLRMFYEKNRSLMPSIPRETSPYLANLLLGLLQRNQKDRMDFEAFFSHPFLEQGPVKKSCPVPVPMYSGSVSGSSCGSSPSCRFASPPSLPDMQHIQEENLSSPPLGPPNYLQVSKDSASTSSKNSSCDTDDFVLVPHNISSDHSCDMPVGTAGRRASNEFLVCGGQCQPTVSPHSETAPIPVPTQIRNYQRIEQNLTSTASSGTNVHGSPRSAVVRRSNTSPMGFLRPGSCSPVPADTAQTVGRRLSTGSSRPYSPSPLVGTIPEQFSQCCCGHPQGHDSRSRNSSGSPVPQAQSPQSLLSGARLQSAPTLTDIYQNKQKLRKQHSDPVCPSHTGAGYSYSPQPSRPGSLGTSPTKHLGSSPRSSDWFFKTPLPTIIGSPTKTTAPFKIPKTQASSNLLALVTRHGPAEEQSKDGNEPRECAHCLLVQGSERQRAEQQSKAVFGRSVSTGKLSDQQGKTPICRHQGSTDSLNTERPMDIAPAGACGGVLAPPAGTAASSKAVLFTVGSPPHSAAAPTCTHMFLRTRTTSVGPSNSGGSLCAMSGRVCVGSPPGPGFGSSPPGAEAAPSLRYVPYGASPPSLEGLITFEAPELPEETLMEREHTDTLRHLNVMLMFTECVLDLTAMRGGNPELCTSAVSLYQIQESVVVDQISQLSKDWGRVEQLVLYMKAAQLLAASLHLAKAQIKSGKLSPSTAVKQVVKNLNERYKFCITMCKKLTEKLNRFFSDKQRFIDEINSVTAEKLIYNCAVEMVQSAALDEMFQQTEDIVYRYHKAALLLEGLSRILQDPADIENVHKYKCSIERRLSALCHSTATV
Sequence of UniProt Q00526 (whole entry, looked up): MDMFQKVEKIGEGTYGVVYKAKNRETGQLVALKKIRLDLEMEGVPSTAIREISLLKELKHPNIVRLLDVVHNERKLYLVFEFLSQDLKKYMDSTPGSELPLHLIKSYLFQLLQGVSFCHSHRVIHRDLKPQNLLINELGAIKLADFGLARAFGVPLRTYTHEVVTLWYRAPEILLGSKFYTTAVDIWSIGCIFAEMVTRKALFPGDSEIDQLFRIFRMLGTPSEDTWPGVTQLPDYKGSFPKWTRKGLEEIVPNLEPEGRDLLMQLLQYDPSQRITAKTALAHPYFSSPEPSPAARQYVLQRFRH
Sequence of UniProt P78368 (whole entry, looked up): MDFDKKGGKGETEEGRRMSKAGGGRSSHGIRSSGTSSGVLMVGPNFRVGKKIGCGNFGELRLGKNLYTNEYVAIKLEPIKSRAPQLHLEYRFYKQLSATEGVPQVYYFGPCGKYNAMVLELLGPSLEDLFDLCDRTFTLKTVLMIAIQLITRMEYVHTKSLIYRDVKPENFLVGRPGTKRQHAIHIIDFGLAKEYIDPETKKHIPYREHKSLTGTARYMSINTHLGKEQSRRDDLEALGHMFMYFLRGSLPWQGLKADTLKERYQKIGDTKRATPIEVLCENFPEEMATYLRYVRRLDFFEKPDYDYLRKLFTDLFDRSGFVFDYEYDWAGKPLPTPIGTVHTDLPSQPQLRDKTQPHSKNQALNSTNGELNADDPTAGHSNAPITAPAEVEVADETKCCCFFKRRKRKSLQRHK
Sequence of UniProt P11802 (whole entry, looked up): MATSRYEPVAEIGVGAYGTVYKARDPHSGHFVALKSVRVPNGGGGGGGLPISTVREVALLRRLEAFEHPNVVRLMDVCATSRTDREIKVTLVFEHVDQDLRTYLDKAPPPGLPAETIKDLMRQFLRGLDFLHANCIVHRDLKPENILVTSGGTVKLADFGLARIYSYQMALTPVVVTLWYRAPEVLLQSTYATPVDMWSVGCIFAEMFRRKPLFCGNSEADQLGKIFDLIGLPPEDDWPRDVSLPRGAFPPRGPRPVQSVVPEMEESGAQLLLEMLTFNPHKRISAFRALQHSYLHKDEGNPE

Set 1 — matrix: 1,9-decadiene/PBS; pH: 7.4
SMILES	logD
CC(C)C[C@@H]1NC(=O)[C@H](Cc2cscn2)NC(=O)[C@H](C)NC(=O)[C@H](C)NC(=O)[C@@H](CCC(=O)N2CCCC2)NC(=O)[C@H](CC(C)C)NC(=O)[C@@H](CC(C)C)NC1=O	-2.96
CC(C)C[C@@H]1NC(=O)[C@@H](C)NC(=O)[C@@H](CC(C)C)NC(=O)[C@H](C)NC(=O)[C@H](C(C)C)NC(=O)[C@H](CC(C)C)NC(=O)[C@@H](CC(C)C)NC1=O	-0.231
CC(C)C[C@@H]1NC(=O)[C@H](C)NC(=O)[C@@H](CC(C)C)NC(=O)[C@H](C)NC(=O)[C@@H](CCC(=O)N2CCCC2)NC(=O)[C@H](CC(C)C)NC(=O)[C@@H](CC(C)C)NC1=O	-1.4
CC(C)C[C@@H]1NC(=O)[C@H](CC(C)C)NC(=O)[C@H](CC(C)C)NC(=O)[C@H](CC(C)C)NC(=O)[C@@H](Cc2cscn2)NC(=O)[C@H](CCC(=O)N2CCCC2)NC(=O)[C@H](C)NC1=O	-1.89
CC(C)C[C@@H]1NC(=O)[C@@H](C)NC(=O)[C@H](Cc2cscn2)NC(=O)[C@@H](C(C)C)NC(=O)[C@H](C(C)C)NC(=O)[C@H](CC(C)C)NC(=O)[C@@H](CC(C)C)NC1=O	-1.08
CC(C)C[C@@H]1NC(=O)[C@H](Cc2cscn2)NC(=O)[C@H](Cc2cscn2)NC(=O)[C@@H](CC(C)C)NC(=O)[C@@H](CCC(=O)N2CCCC2)NC(=O)[C@H](CC(C)C)NC(=O)[C@@H](CC(C)C)NC1=O	-0.635
CC(C)C[C@@H]1NC(=O)[C@H](CC(C)C)NC(=O)[C@@H](C(C)C)NC(=O)[C@@H](C)NC(=O)[C@H](C)NC(=O)[C@@H](CC(C)C)NC(=O)[C@H](C)NC1=O	-2.06

Set 2 — read-out: cell-free assay; technique: competition with immobilised ligand; concentration: 1 µM
SMILES: CN(C(=O)c1ccccc1)c1cc(N(C)c2ccc3c(c2)CCc2ccc(C(=O)NCCN4CCOCC4)cc2C3=O)ccc1F
target	remaining binding [%]
Serine/threonine-protein kinase ULK3 (ULK3, Homo sapiens, UniProt Q6PHR2)	100
Cyclin-dependent kinase 4, with cyclin D1 (CDK4, Homo sapiens, UniProt P11802)	100
Serine/threonine-protein kinase NIM1 (NIM1K, Homo sapiens, UniProt Q8IY84)	100
Dual specificity mitogen-activated protein kinase kinase 3 (MAP2K3, Homo sapiens, UniProt P46734)	100
Interleukin-1 receptor-associated kinase 4 (IRAK4, Homo sapiens, UniProt Q9NWZ3)	100
Cyclin-dependent kinase 3 (CDK3, Homo sapiens, UniProt Q00526)	100
Ribosomal protein S6 kinase beta-1 (RPS6KB1, Homo sapiens, UniProt P23443)	77
Receptor tyrosine-protein kinase erbB-2 (ERBB2, Homo sapiens, UniProt P04626)	100
Proto-oncogene tyrosine-protein kinase receptor Ret (RET, Homo sapiens, UniProt P07949, V804L)	100
Serine/threonine-protein kinase D2 (PRKD2, Homo sapiens, UniProt Q9BZL6)	84

Set 3 — read-out: enzyme activity; action: inhibitor; concentration: 10 µM
Target: Calcium/calmodulin-dependent protein kinase type II subunit alpha (CAMK2A, Homo sapiens, UniProt Q9UQM7)
Sequence of UniProt Q9UQM7 (whole entry, looked up): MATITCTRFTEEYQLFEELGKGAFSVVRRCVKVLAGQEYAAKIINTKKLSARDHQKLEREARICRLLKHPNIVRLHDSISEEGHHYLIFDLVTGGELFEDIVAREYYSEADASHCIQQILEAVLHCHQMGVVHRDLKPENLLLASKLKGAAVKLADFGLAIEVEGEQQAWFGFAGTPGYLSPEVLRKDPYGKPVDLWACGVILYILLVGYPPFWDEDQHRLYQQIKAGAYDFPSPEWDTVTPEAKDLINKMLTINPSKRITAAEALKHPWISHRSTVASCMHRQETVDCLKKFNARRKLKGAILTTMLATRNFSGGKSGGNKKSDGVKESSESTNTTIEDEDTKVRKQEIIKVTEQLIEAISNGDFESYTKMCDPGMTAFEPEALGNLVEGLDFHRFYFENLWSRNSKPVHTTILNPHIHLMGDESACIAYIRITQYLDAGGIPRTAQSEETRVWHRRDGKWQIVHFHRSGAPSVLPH
SMILES	inhibition
CC1=C(CC[C@H](C)CO[C@@H]2O[C@H](CO)[C@@H](O)[C@H](O)[C@H]2O)O[C@H]2C[C@H]3[C@@H]4CC[C@@H]5C[C@@H](O[C@@H]6O[C@H](CO)[C@@H](O)[C@H](O)[C@H]6O[C@@H]6O[C@H](CO)[C@@H](O)[C@H](O)[C@H]6O)CC[C@]5(C)[C@H]4CC[C@]3(C)[C@@H]12	-22%
CC1(C)CC[C@]2(C(=O)O[C@@H]3O[C@H](CO[C@@H]4O[C@H](CO)[C@@H](O)[C@H](O)[C@H]4O)[C@@H](O)[C@H](O)[C@H]3O)CC[C@]3(C)C(=CC[C@@H]4[C@@]5(C)CC[C@H](O[C@@H]6OC[C@H](O)[C@H](O)[C@H]6O)[C@@](C)(CO)[C@@H]5CC[C@]43C)[C@@H]2C1	-7%
CNC(=O)c1ccccc1Sc1ccc2c(/C=C/c3ccccn3)n[nH]c2c1	-3%
CCCS(=O)(=O)N[C@H]1C[C@@H](N(C)c2ncnc3[nH]ccc23)C1	-12%
CO/N=C(\C(=O)N[C@@H]1C(=O)N2C(C(=O)O)=C(C[N+]3(C)CCCC3)CS[C@H]12)c1csc(N)n1	-9%
C/C=C/C/C=C/CCC(=O)[C@H]1O[C@H]1C(N)=O	9%
CC(CC(=O)O)CC(=O)O	11%
N[C@@H](Cc1ccc(O)c(Cl)c1)C(=O)O	-1%
OCC(O)COc1ccc(Cl)cc1 (stereo not shown)	-1%

Set 4 — Structure (SMILES): CCOc1cc2ncnc(Nc3cccc(Br)c3)c2cc1OCC; read-out: enzyme activity; action: inhibitor; concentration: 0.5 µM; reference: control
target	remaining activity [%]
Casein kinase I isoform gamma-2 (CSNK1G2, Homo sapiens, UniProt P78368)	103
Dual specificity mitogen-activated protein kinase kinase 2 (MAP2K2, Homo sapiens, UniProt P36507)	95.5
Fibroblast growth factor receptor 1 (FGFR1, Homo sapiens, UniProt P11362)	90.9
Serine/threonine-protein kinase Nek6 (NEK6, Homo sapiens, UniProt Q9HC98)	106
Serine/threonine-protein kinase ULK2 (ULK2, Homo sapiens, UniProt Q8IYT8)	82.8
Tyrosine-protein kinase ABL2 (ABL2, Homo sapiens, UniProt P42684)	52.1
Casein kinase I isoform gamma-3 (CSNK1G3, Homo sapiens, UniProt Q9Y6M4)	98.7
Serine/threonine-protein kinase TAO2 (TAOK2, Homo sapiens, UniProt Q9UL54)	101
Mitogen-activated protein kinase kinase kinase 5 (MAP3K5, Homo sapiens, UniProt Q99683)	116
Fibroblast growth factor receptor 3 (FGFR3, Homo sapiens, UniProt P22607)	103
Rhodopsin kinase GRK7 (GRK7, Homo sapiens, UniProt Q8WTQ7)	102
Serine/threonine-protein kinase TBK1 (TBK1, Homo sapiens, UniProt Q9UHD2)	85.4
Serine/threonine-protein kinase A-Raf (ARAF, Homo sapiens, UniProt P10398)	105
Ribosomal protein S6 kinase alpha-2 (RPS6KA2, Homo sapiens, UniProt Q15349)	74.5
